# Experimental data gathered from unrelated publications.
# Parts stem from different laboratories: compare values within a part only. Changes are numbered by the printed parent chain.

# Study 1
# Target: ABI1, truncated, D143A, DHFR fusion (Arabidopsis thaliana)
# Technique: DHFR PCA, deep sequencing
# Sample: yeast
# Setting: methotrexate growth selection, single substitutions
# Added: (+)-ABA 0 µM
# Reference: wild-type fitted maximum
# Reading: higher = stronger binding
# Starting sequence: PYL1, truncated, DHFR fusion (Arabidopsis thaliana); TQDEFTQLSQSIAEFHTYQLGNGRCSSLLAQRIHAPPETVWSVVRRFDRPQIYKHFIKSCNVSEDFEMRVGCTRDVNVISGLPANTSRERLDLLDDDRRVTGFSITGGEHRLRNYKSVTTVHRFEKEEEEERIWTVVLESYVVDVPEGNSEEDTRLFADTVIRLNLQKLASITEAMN; partner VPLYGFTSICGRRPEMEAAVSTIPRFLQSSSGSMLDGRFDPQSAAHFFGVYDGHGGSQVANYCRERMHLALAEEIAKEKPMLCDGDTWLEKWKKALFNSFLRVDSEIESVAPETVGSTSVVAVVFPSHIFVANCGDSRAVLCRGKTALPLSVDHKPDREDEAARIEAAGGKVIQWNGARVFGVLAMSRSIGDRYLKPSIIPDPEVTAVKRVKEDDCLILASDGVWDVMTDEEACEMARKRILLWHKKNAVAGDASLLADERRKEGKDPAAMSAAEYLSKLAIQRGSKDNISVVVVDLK
Change,relative binding score [%]
T17S,12.7
F15S,1.78
T135F,-7.38
G81T,36.5
Q31Y,1.52
P50T,-1.23
Y115D,2.02
S11F,14

# Study 2
# Target: inorganic phosphate, free oxyanion
# Technique: microfluidic competitive inhibition
# Sample: in vitro, cell-free expressed
# Tested at: not given
# Setting: derived from inhibition constants, unchanged parent 615000 nM
# Reading: lower = stronger binding
# Starting sequence: PafA, mature enzyme, eGFP fusion (Elizabethkingia meningoseptica, UniProt Q9KJX5); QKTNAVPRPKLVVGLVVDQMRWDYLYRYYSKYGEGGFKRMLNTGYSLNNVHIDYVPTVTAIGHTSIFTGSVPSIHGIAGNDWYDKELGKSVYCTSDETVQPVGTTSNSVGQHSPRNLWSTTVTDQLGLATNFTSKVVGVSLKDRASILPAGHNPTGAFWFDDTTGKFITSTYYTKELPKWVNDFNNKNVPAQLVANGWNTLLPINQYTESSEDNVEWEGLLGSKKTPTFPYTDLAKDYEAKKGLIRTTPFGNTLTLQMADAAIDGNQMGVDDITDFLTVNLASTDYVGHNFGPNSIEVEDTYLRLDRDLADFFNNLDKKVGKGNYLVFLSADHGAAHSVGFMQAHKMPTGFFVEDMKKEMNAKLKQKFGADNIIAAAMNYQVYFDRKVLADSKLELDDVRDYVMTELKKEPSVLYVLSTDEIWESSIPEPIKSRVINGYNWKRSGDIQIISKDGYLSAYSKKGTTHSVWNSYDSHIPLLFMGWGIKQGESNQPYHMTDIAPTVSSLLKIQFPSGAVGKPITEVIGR
Change,phosphate dissociation constant
F37V,607 µM
K236V,647 µM
I485V,675 µM
W22G,385 µM
M342G,408 µM
V339G,384 µM
Y24G,689 µM
A150G,583 µM
K319V,591 µM
N294V,442 µM
Y380V,788 µM
H63G,8.86 µM
L221V,585 µM
L479V,680 µM
Q125G,337 µM
G44A,592 µM
T105G,555 µM
F384V,715 µM
P149V,195 µM
Q492G,542 µM
P411V,671 µM
I66V,576 µM
V382G,545 µM
N107G,786 µM
D498V,430 µM

# Study 3
# Target: CCNB3, cyclin fold, Cln2 fusion (human)
# Technique: yeast growth competition, sequencing
# Sample: yeast
# Setting: strong parent motif
# Reference: not given
# Reading: higher = stronger binding
# Starting sequence: viral docking peptide; TSVRRALFTGGSD
Change,normalised enrichment score
TSVRRAIFTGGSD [L7I],0.329
TSVRRALFDGGSD [T9D],1.5
TSVRRGLFTGGSD [A6G],1.35
TSVRRALFTGYSD [G11Y],1.63
TSRRRALFTGGSD [V3R],0.564
TSVDRALFTGGSD [R4D],-0.343
TGVRRALFTGGSD [S2G],2.52
TKVRRALFTGGSD [S2K],1.77
TSVRRAWFTGGSD [L7W],0.313
TSVRRALFTLGSD [G10L],1.55
TSVRRALFNGGSD [T9N],1.49
TSVRRALFMGGSD [T9M],1.64
TSVRRAVFTGGSD [L7V],0.264
TSVRYALFTGGSD [R5Y],0.16
TSVRNALFTGGSD [R5N],0.168
TSVRRALFTWGSD [G10W],1.27
TSVRRATFTGGSD [L7T],0.147
TSVRRAKFTGGSD [L7K],0.258
TSTRRALFTGGSD [V3T],0.464
TSVRRPLFTGGSD [A6P],0.258
TSVRRALTTGGSD [F8T],-0.176
TSVRRALFTYGSD [G10Y],1.4
TSVKRALFTGGSD [R4K],0.603
TSVRRALFWGGSD [T9W],0.856
TSVRRDLFTGGSD [A6D],0.826

# Study 4
# Target: Phosphate system positive regulatory protein PHO4, full length, GST-tagged (PHO4, Saccharomyces cerevisiae, UniProt P07270, residues 1-312)
# Technique: competition protein-binding microarray
# Molecule type: double-stranded DNA, one strand shown
# Sample: in vitro
# Tested at: 2 µM
# Setting: whole 60-bp probe, lowest competitor level
# Added: Cbf1 competitor, 0.05 µM
# Reading: higher = stronger binding
# Shared flanks, not repeated: … GTCTTGATTCGCTTGACGCTGCTG
# Residues (chain): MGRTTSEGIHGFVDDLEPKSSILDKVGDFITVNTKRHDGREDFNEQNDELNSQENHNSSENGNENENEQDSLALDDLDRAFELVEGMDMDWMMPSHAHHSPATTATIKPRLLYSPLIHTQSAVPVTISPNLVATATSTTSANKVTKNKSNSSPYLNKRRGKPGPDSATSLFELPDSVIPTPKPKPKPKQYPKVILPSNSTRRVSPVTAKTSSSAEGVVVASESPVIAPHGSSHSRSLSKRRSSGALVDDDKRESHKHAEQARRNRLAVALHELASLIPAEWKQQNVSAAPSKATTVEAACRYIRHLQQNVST
Strand,fluorescence intensity [a.u.]
AATAAGTTCATCGACCACGCACACTTCACCAAGTTA,8250
CGTAATTGACATGAACACATGCATTATATTTTTTGT,10500
AGTCTTGTCTGAAACCATGTGGGACACCAAGAAGGA,9750
CTAACGAAGGTTTGAAATGTGGGTGACAAGCCAAGT,5490
TGAATAGCAGCATTCAATGTGACGAACAACCCGGAG,3940
CTCGTAATCTGGTCCCACGTCTTGCACTATATGCAG,6720
GGGAAACGCCCAGAGCACGTGCTCCTGCCCGACACC,19500
AAGTGATGAGAATCGCACGTCTAGATAATGGCAGTA,5640

# Excerpt of the above (study 3):
Change,normalised enrichment score
TSVRRAKFTGGSD [L7K],0.258
TSTRRALFTGGSD [V3T],0.464
TSVRRPLFTGGSD [A6P],0.258
